Published values of several laboratories.
Every numbered part comes from another study and shows a few of its results, in no order. “And” joins repeats or separate records; there may be more than shown.
UniProt Q9UKI8, sequence (whole entry, looked up): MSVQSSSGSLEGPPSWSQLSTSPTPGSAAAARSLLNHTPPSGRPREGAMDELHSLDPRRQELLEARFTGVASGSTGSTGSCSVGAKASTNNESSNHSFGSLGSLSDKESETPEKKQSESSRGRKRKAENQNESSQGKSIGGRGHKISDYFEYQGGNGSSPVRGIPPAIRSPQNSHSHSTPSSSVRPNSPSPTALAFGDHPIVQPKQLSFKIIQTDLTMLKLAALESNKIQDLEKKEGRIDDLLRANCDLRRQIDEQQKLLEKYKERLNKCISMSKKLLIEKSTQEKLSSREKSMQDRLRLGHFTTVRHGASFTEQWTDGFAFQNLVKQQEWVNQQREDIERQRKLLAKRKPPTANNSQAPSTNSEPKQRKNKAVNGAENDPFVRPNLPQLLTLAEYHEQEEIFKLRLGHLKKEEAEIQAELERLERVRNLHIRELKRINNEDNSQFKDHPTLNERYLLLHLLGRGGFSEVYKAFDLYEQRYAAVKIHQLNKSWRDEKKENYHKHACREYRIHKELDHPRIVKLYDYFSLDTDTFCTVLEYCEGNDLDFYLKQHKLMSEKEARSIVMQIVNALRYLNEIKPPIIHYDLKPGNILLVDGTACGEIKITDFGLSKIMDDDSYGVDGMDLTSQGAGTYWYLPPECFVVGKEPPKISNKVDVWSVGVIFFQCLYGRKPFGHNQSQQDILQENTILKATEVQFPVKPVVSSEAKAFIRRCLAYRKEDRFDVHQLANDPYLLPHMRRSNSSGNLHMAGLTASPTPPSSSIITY
UniProt Q9Y2H9, sequence (whole entry, looked up): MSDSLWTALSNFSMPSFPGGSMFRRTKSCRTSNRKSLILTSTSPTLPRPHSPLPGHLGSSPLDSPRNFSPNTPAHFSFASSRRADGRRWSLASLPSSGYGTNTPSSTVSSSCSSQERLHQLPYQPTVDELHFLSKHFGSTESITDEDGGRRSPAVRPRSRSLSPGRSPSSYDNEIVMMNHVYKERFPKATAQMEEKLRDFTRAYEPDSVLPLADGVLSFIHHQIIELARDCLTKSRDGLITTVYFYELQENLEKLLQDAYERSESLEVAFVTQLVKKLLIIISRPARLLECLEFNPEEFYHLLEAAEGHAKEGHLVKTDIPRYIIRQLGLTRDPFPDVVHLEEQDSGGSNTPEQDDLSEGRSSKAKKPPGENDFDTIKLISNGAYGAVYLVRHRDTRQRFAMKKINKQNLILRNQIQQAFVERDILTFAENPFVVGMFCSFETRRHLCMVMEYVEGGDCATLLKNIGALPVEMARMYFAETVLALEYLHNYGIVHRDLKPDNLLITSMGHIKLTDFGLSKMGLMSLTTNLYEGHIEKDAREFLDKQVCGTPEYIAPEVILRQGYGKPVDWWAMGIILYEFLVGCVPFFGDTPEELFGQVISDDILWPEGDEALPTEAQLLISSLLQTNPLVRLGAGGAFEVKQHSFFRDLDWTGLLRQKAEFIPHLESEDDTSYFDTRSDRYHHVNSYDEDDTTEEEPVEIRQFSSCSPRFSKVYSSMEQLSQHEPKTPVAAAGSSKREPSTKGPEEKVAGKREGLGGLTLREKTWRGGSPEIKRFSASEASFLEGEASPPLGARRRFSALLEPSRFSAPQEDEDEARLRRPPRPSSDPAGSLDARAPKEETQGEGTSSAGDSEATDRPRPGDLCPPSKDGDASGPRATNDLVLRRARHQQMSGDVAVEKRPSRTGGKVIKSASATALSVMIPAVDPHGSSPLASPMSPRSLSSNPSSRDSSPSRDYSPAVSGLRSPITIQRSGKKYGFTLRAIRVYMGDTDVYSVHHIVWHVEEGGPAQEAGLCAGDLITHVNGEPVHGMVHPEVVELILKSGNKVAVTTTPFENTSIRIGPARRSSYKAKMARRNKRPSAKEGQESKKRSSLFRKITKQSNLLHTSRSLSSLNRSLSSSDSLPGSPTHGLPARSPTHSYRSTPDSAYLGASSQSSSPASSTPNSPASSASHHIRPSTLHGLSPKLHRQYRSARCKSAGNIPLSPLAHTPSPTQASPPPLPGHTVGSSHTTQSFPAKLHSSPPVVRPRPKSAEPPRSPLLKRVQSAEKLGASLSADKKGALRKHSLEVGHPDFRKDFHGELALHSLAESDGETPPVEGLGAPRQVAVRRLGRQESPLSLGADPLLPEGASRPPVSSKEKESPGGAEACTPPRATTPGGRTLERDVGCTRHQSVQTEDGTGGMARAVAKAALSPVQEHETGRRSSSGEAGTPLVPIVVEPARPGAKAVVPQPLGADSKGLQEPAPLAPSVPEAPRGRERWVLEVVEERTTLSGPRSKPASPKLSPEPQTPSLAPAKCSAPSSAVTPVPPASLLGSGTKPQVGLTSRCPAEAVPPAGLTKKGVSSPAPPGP
UniProt Q96D53, sequence (whole entry, looked up): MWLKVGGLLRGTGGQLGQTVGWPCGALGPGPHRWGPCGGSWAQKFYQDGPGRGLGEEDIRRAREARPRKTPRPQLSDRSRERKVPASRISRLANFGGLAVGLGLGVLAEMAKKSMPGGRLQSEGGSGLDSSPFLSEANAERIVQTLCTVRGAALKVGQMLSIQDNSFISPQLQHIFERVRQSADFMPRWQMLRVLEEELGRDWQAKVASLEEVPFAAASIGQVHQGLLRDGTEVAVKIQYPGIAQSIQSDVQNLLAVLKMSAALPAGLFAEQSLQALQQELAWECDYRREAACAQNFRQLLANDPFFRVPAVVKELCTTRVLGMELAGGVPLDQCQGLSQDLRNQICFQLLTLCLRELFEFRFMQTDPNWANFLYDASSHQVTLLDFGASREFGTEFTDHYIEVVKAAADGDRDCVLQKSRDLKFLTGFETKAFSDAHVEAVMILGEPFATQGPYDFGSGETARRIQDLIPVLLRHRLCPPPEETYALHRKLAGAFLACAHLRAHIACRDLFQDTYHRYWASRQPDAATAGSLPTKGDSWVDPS
UniProt P04629, sequence (whole entry, looked up): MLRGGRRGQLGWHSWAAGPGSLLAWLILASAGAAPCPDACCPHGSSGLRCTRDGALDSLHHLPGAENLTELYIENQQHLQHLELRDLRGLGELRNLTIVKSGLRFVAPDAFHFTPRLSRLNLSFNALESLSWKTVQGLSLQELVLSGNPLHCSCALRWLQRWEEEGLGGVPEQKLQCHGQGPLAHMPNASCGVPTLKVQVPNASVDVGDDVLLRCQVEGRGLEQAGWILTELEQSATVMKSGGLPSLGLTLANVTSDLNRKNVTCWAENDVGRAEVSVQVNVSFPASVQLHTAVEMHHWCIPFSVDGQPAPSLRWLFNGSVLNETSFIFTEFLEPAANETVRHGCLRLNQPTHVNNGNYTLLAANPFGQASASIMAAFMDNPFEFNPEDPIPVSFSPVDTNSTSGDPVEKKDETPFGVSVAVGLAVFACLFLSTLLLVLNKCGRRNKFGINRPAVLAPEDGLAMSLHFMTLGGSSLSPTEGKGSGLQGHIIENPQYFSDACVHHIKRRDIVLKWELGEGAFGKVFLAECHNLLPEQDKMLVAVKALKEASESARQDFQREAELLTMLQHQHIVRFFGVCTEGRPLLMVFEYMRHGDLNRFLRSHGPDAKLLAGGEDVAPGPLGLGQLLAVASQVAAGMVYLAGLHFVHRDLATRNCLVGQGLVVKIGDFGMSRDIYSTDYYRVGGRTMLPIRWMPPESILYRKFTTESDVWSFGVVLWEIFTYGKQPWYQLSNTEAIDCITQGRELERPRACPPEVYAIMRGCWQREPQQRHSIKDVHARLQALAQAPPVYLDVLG
UniProt P11802, sequence (whole entry, looked up): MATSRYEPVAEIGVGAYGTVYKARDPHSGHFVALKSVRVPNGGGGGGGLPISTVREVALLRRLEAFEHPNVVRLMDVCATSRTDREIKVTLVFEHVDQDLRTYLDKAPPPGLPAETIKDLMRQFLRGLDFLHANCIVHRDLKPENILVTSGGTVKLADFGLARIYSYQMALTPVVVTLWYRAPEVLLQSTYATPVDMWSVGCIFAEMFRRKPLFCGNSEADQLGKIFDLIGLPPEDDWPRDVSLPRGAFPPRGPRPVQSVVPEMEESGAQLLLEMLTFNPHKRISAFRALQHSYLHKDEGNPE

Series 1 — read-out: enzyme activity; action: inhibitor; concentration: 0.5 µM; baseline: control; quantity: remaining activity
Target: Ribosomal protein S6 kinase alpha-3 (RPS6KA3, Homo sapiens, UniProt P51812)
UniProt P51812, sequence (whole entry, looked up): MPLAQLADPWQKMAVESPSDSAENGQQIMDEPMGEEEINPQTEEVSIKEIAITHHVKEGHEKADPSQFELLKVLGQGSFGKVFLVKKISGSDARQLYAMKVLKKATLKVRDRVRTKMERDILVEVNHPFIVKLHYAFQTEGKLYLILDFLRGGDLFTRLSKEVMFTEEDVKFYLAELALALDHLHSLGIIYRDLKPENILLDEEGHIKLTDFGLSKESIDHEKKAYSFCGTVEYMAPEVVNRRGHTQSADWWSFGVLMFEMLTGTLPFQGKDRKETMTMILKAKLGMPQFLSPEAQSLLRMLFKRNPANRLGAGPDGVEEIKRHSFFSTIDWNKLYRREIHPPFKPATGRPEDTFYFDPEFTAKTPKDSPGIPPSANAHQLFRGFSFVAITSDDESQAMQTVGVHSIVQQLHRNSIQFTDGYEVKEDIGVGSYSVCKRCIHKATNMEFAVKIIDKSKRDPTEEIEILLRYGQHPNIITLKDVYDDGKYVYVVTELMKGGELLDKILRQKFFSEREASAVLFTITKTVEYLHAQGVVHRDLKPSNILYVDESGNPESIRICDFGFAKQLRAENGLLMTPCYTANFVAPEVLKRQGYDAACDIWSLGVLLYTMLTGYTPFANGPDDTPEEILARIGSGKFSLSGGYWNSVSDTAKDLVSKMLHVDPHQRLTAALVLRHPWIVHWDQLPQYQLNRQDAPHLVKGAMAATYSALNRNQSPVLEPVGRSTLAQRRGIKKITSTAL
O=C(NC(NC(=S)Nc1ccc(F)c([N+](=O)[O-])c1)C(Cl)(Cl)Cl)C(c1ccccc1)c1ccccc1 (centres unmarked): 96.2%
CCOc1nc(NC(=O)Cc2cc(OC)ccc2OC)cc(N)c1C#N: 95.6%
O=C1C(Cl)=C(N2C(=O)CCC2=O)C(=O)c2ccccc21: 101%
COc1cc2c(cc1OC)-c1[nH]nc(Nc3cccc(F)c3)c1C2: 94.7%
Cc1nc2cc3nc(-c4cccs4)cnc3cc2n1C: 96.3%
COc1cc2ncnc(Nc3cccc(Cl)c3)c2cc1OC: 87.8%
c1ccc(-c2cnc(Nc3ccc(OCCN4CCCC4)cc3)s2)cc1: 92.2%
O=C(Nc1cccc(Nc2nccc(Nc3cccc(C(F)(F)F)c3)n2)c1)C1CC1: 100%
Cc1cc2ncc(-c3ccccc3)nc2cc1C: 94.2%
Nc1cccc(-c2cc3c(Oc4cccc(O)c4)ncnc3[nH]2)c1: 96.9%
N#C/C(=C\c1ccc(O)c(O)c1)C(=O)NCc1ccccc1: 100%

Series 2 — read-out: cell-free assay; technique: competition with immobilised ligand; concentration: 1 µM; quantity: remaining binding
Structure (SMILES): O=C1CCc2cc(Nc3cc(OC4CCOCC4)c([N+](=O)[O-])cc3Cl)ccc2N1
Interleukin-1 receptor-associated kinase 4 (IRAK4, Homo sapiens, UniProt Q9NWZ3): 100%
Ephrin type-B receptor 4 (EPHB4, Homo sapiens, UniProt P54760): 100%
Serine/threonine-protein kinase tousled-like 1 (TLK1, Homo sapiens, UniProt Q9UKI8): 92%
Ribosomal protein S6 kinase alpha-1, N-terminal kinase domain (RPS6KA1, Homo sapiens, UniProt Q15418): 100%
Myosin-IIIb (MYO3B, Homo sapiens, UniProt Q8WXR4): 97%
Ephrin type-A receptor 3 (EPHA3, Homo sapiens, UniProt P29320): 83%
Tyrosine-protein kinase Fyn (FYN, Homo sapiens, UniProt P06241): 64%
High affinity nerve growth factor receptor (NTRK1, Homo sapiens, UniProt P04629): 94%
Protein kinase C eta type (PRKCH, Homo sapiens, UniProt P24723): 86%
Serine/threonine-protein kinase MARK2 (MARK2, Homo sapiens, UniProt Q7KZI7): 71%
Atypical kinase COQ8B, mitochondrial (COQ8B, Homo sapiens, UniProt Q96D53): 100%
Microtubule-associated serine/threonine-protein kinase 1 (MAST1, Homo sapiens, UniProt Q9Y2H9): 100%
Cyclin-dependent kinase 4, with cyclin D1 (CDK4, Homo sapiens, UniProt P11802): 78%

Other studies, line by line
CCC[C@@H]1NC(=O)CSC[C@@H](C(=O)OCC)N(C)C(=O)[C@H](CC(C)C)NC(=O)[C@@H](C)N(C)C(=O)[C@H](CC(C)C)NC(=O)[C@H](C)N(C)C(=O)[C@@H]2CCCN2C(=O)[C@H](CC(C)C)NC(=O)CN(C)C1=O — logD (hydrocarbon/water): 0.0216
COCc1cc(C(=O)Nc2cc([C@H]3CC[C@@H](OC(=O)NC(C)C)C3)[nH]n2)n(C)n1 — cell count (NCI-H1048; Vi-Cell; 62.5 nM, 6 d; baseline: DMSO): 0.777 and 0.78 and 0.857

Repeated from above (series 2):
Ribosomal protein S6 kinase alpha-1, N-terminal kinase domain (RPS6KA1, Homo sapiens, UniProt Q15418): 100%
Myosin-IIIb (MYO3B, Homo sapiens, UniProt Q8WXR4): 97%
Tyrosine-protein kinase Fyn (FYN, Homo sapiens, UniProt P06241): 64%
